Measured values pooled from the literature.
Compare with care: the assays were run in different laboratories. Numbers after ± are the reported error.

`CC(C)C[C@H](NC(=O)[C@@H]1CCCN1C(=O)[C@H](CCCCN)NC(=O)[C@@H](N)CO)C(=O)N1CCC[C@H]1C(=O)N[C@@H](CCC(=O)O)C(=O)N[C@H](C(=O)N[C@H](C(=O)N[C@@H](CC(=O)O)C(=O)N[C@@H](CCC(=O)O)C(=O)N[C@@H](Cc1ccc(O)cc1)C(=O)N[C@@H](Cc1cn(CCOCCOCCOCCNC(=O)CCc2ccc(O)c(CN(CCN(CC(=O)O)Cc3cc(CCC(=O)NCCCC[C@H](NC(=O)N[C@@H](CCC(=O)O)C(=O)O)C(=O)O)ccc3O)CC(=O)O)c2)nn1)C(=O)O)[C@@H](C)O)C(C)C` [gallium-68 labelled] has a tumour SUVmax of 1.6 g/mL (PET; NMRI nu/nu mouse, LNCaP xenograft; intravenous, 15 MBq, 0.52 nmol, 60 to 120 min).
`CC(C)C[C@H](NC(=O)C[C@H](O)[C@H](CC(C)C)NC(=O)[C@H](Cc1c[nH]cn1)NC(=O)CNC(=O)[C@@H](NC(=O)[C@H](C)NC(=O)[C@H](Cc1c[nH]c2ccccc12)NC(=O)[C@H](CCC(N)=O)NC(=O)[C@@H](Cc1ccccc1)NC(=O)c1ccc(NC(=O)CNC(=O)CCC(C(=O)O)N2CCN(CC(=O)O)CCN(CC(=O)O)CC2)cc1)C(C)C)C(N)=O` (stereo partly drawn) [copper-64 labelled] gave a tumour uptake of 3.5 ± 1 %ID/g (PET imaging; mouse, PC-3 xenograft; intravenous, 4 h, 64Cu-labelled).
For `N=C(N)NCCC[C@@H]1NC(=O)[C@H](CCCCNC(=O)c2ccc(CNC34CNCCNCC(NCc5ccc(C(=O)NCCCC[C@@H]6NC(=O)[C@@H](Cc7ccc(O)cc7)NC(=O)[C@H](CC(=O)O)NC(=O)CNC(=O)[C@H](CCCNC(=N)N)NC6=O)cc5)(CNCCNC3)CNCCNC4)cc2)NC(=O)[C@@H](Cc2ccc(O)cc2)NC(=O)[C@H](CC(=O)O)NC(=O)CNC1=O` [copper-64 labelled], the tumour uptake was 5.54 ± 1.27 %ID/g (microPET; female athymic nude mouse, U-87 MG xenograft, U-87 MG tumour; intravenous, 20 h).
The tumour uptake of `N=C(N)NCCC[C@@H]1NC(=O)[C@H](CCCCNC(=O)CC[C@H](NC(=O)CCOCCOCCOCCOCCNC(=O)CN2CCN(CC(=O)O)CCN(CC(=O)O)CCN(CC(=O)O)CC2)C(=O)NCCCC[C@@H]2NC(=O)[C@@H](Cc3ccccc3)NC(=O)[C@H](CC(=O)O)NC(=O)CNC(=O)[C@H](CCCNC(=N)N)NC2=O)NC(=O)[C@@H](Cc2ccccc2)NC(=O)[C@H](CC(=O)O)NC(=O)CNC1=O` [indium-111 labelled] is reported as 3.1 %ID/g (female athymic nude mouse, U-87 MG tumour; intravenous, 3 µCi, 24 h, U-87 MG glioma xenograft).
`N=C(N)NCCC[C@@H]1NC(=O)[C@H](CCCCNC(=O)CNC(=O)CNC(=O)CNC(=O)CC[C@H](NC(=O)c2ccc(NN=Cc3ccccc3S(=O)(=O)O)nc2)C(=O)NCC(=O)NCC(=O)NCC(=O)NCCCC[C@@H]2NC(=O)[C@@H](Cc3ccccc3)NC(=O)[C@H](CC(=O)O)NC(=O)CNC(=O)[C@H](CCCNC(=N)N)NC2=O)NC(=O)[C@@H](Cc2ccccc2)NC(=O)[C@H](CC(=O)O)NC(=O)CNC1=O` [technetium-99m labelled] — result for “tumour to tissue ratio”: 2.85 ± 0.29 (athymic nu/nu mouse, female, U-87 MG glioma xenograft; intravenous, 30 min; baseline: tumour over liver).
For `N=C(N)NCCC[C@@H]1NC(=O)[C@H](CCCCNC(=O)CCOCCOCCOCCOCCNC(=O)CN2CCN(CC(=O)O)CCN(CC(=O)O)CCN(CC(=O)O)CC2)NC(=O)[C@@H](Cc2ccccc2)NC(=O)[C@H](CC(=O)O)NC(=O)CNC1=O` [indium-111 labelled], the tumour uptake was 0.7 %ID/g (female athymic nude mouse, U-87 MG tumour; intravenous, 3 µCi, 72 h, U-87 MG glioma xenograft).
`C[C@@H]1NC(=O)[C@H](CCC(=O)O)NC(=O)CNC(=O)[C@H](CC(=O)O)NC(=O)CNC(=O)[C@H](CCCCNC(=O)CCCCCNC(=O)[C@H](CS)NC(=O)CCCCCNC(=O)CN2CCN(CC(=O)O)CCN(CC(=O)O)CCN(CC(=O)O)CC2)NC(=O)[C@@H](Cc2ccc(O)cc2)NC1=O` [gallium-68 labelled]: “tumour to muscle ratio” 2.3 ± 0.17 (mouse, intratibial A549; dose not given).
The tumour uptake of `N=C(N)NCCC[C@@H]1NC(=O)[C@H](CCCCNC(=O)CCOCCOCCOCCOCCNC(=O)CC[C@H](NC(=O)CCOCCOCCOCCOCCNC(=O)CC[C@H](NC(=O)CN2CCN(CC(=O)O)CCN(CC(=O)O)CCN(CC(=O)O)CC2)C(=O)NCCOCCOCCOCCOCCC(=O)N[C@@H](CCC(=O)NCCOCCOCCOCCOCCC(=O)NCCCC[C@@H]2NC(=O)[C@@H](Cc3ccccc3)NC(=O)[C@H](CC(=O)O)NC(=O)CNC(=O)[C@H](CCCNC(=N)N)NC2=O)C(=O)NCCOCCOCCOCCOCCC(=O)NCCCC[C@@H]2NC(=O)[C@@H](Cc3ccccc3)NC(=O)[C@H](CC(=O)O)NC(=O)CNC(=O)[C@H](CCCNC(=N)N)NC2=O)C(=O)NCCOCCOCCOCCOCCC(=O)NCCCC[C@@H]2NC(=O)[C@@H](Cc3ccccc3)NC(=O)[C@H](CC(=O)O)NC(=O)CNC(=O)[C@H](CCCNC(=N)N)NC2=O)NC(=O)[C@@H](Cc2ccccc2)NC(=O)[C@H](CC(=O)O)NC(=O)CNC1=O` [indium-111 labelled] is reported as 11.1 %ID/g (female athymic nude mouse, U-87 MG tumour; intravenous, 3 µCi, 1 h, U-87 MG glioma xenograft).
For `N=C(N)NCCC[C@@H]1NC(=O)[C@H](CCCCNC(=O)CCOCCOCCOCCOCCNC(=O)CC[C@H](NC(=O)CCOCCOCCOCCOCCNC(=O)c2ccc(NN)nc2)C(=O)NCCOCCOCCOCCOCCC(=O)NCCCC[C@@H]2NC(=O)[C@@H](Cc3ccccc3)NC(=O)[C@H](CC(=O)O)NC(=O)CNC(=O)[C@H](CCCNC(=N)N)NC2=O)NC(=O)[C@@H](Cc2ccccc2)NC(=O)[C@H](CC(=O)O)NC(=O)CNC1=O` [technetium-99m labelled], the tumour uptake was 9.15 ± 2.13 %ID/g (athymic nude mouse, female, U-87 MG xenograft, tumour; intravenous, 2.5 µCi, 60 min).

A few entries again:
The tumour uptake of `N=C(N)NCCC[C@@H]1NC(=O)[C@H](CCCCNC(=O)CCOCCOCCOCCOCCNC(=O)CC[C@H](NC(=O)CCOCCOCCOCCOCCNC(=O)CC[C@H](NC(=O)CN2CCN(CC(=O)O)CCN(CC(=O)O)CCN(CC(=O)O)CC2)C(=O)NCCOCCOCCOCCOCCC(=O)N[C@@H](CCC(=O)NCCOCCOCCOCCOCCC(=O)NCCCC[C@@H]2NC(=O)[C@@H](Cc3ccccc3)NC(=O)[C@H](CC(=O)O)NC(=O)CNC(=O)[C@H](CCCNC(=N)N)NC2=O)C(=O)NCCOCCOCCOCCOCCC(=O)NCCCC[C@@H]2NC(=O)[C@@H](Cc3ccccc3)NC(=O)[C@H](CC(=O)O)NC(=O)CNC(=O)[C@H](CCCNC(=N)N)NC2=O)C(=O)NCCOCCOCCOCCOCCC(=O)NCCCC[C@@H]2NC(=O)[C@@H](Cc3ccccc3)NC(=O)[C@H](CC(=O)O)NC(=O)CNC(=O)[C@H](CCCNC(=N)N)NC2=O)NC(=O)[C@@H](Cc2ccccc2)NC(=O)[C@H](CC(=O)O)NC(=O)CNC1=O` [indium-111 labelled] is reported as 11.1 %ID/g (female athymic nude mouse, U-87 MG tumour; intravenous, 3 µCi, 1 h, U-87 MG glioma xenograft).
